Results collected from several papers.
Each numbered part is a random draw from the data of one study; scales do not carry over between parts. Several values in a cell are separate wells, animals, samples, runs or records.
UniProt Q15418, sequence (whole entry, looked up): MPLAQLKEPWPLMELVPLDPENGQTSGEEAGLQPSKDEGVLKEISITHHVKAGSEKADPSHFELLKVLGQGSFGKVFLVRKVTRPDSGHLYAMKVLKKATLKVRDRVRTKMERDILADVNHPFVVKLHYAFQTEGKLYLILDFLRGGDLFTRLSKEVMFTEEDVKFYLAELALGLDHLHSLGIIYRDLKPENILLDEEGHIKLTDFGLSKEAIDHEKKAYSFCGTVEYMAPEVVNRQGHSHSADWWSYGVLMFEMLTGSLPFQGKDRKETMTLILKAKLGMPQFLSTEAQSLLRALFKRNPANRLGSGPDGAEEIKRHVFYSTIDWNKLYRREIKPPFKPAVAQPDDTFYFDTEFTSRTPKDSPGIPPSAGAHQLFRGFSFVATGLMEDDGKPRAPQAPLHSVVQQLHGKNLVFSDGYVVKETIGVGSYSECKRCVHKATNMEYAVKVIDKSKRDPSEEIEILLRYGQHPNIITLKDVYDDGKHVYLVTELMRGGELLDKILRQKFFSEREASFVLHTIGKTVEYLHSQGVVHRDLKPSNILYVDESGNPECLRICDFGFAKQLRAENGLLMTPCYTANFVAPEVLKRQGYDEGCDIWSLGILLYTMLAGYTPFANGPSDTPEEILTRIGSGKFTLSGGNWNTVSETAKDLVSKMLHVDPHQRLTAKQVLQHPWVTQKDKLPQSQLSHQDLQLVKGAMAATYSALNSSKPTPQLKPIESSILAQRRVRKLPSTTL
UniProt O14730, sequence (whole entry, looked up): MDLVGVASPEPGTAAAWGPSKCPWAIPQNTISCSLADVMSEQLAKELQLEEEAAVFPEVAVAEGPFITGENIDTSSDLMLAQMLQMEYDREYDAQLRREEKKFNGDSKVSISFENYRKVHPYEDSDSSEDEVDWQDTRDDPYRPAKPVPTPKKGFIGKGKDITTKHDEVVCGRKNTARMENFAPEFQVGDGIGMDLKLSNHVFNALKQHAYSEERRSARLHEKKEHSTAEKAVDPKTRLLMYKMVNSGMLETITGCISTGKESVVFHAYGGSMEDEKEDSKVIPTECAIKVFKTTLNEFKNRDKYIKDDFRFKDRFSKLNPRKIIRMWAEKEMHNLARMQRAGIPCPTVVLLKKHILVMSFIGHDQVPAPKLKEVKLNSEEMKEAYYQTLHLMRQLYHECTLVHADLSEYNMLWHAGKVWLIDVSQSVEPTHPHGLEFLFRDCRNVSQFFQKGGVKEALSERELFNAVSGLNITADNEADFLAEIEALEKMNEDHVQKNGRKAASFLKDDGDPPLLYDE
UniProt O95382, sequence (whole entry, looked up): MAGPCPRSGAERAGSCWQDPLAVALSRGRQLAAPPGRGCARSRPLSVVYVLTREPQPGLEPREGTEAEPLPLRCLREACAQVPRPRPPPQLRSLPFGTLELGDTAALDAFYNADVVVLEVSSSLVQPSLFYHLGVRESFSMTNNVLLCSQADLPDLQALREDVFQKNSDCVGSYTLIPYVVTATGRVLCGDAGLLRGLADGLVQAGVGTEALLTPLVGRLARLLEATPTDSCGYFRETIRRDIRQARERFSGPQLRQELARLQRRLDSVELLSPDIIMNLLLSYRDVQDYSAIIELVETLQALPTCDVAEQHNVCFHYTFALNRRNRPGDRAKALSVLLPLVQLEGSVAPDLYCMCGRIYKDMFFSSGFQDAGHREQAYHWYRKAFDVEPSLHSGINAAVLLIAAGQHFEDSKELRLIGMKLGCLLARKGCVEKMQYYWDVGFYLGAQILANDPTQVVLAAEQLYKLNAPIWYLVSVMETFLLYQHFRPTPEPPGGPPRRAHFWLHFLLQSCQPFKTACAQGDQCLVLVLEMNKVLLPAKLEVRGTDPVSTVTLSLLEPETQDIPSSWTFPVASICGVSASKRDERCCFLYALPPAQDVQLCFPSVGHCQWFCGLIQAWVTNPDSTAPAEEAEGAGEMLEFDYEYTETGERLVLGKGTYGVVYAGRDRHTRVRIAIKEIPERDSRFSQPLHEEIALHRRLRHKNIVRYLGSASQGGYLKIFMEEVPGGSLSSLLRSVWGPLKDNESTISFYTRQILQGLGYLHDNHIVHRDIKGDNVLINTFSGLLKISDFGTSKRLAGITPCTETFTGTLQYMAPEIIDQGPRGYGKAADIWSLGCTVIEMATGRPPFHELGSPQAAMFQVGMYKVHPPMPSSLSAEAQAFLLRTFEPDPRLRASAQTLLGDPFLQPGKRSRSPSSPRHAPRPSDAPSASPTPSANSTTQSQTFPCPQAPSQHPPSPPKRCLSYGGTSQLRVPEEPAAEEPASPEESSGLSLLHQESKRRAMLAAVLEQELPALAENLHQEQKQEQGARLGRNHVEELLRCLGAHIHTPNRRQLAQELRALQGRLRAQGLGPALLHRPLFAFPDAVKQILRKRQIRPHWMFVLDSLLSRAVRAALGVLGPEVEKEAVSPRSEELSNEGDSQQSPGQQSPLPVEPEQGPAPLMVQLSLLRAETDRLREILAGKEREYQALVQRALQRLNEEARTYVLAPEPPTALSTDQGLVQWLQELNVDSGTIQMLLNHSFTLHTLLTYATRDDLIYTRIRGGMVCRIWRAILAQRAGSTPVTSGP
UniProt O00238, sequence (whole entry, looked up): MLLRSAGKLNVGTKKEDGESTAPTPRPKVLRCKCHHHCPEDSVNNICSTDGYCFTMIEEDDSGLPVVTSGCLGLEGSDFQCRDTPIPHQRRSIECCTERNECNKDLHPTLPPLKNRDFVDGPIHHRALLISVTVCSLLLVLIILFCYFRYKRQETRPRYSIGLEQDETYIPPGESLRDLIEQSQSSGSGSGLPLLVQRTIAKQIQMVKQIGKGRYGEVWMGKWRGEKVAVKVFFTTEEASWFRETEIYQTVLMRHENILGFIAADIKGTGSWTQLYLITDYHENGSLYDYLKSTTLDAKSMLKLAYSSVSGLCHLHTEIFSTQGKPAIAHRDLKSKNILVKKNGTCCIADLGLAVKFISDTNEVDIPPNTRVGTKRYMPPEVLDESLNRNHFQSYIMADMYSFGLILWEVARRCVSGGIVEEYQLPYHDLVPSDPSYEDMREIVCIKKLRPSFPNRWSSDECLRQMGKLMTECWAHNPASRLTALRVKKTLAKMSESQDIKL

Study 1 — cell line: mouse MPNST tumor cells; technique: high-content nuclear imaging; measured: cell number; concentration: 10 µM; time: 12 h; setting: mean of 2 replicates; reference: plate mean; reading: higher = more cells
| Structure (SMILES) | nuclei count [z-score] |
| --- | --- |
| Cc1ccc(S(=O)(=O)n2c(N)nc3ccccc32)cc1 | 0.336 |
| Clc1cccc(Cl)c1/C(=C/n1cncn1)OC1CCCCCC1 | -0.625 |
| NCCC(O)(P(=O)(O)O)P(=O)(O)O | 1.21 |
| CCC(C)C1OC2(CCC1C)CC1CC(CC=C(C)C(OC3CC(OC)C(OC4CC(OC)C(O)C(C)O4)C(C)O3)C(C)C=CC=C3COC4C(O)C(C)=CC(C(=O)O1)C34O)O2 (centres unmarked) | -5.58 |
| O=C1Nc2ccccc2C12OCC1(CO2)COC2(OC1)C(=O)Nc1ccccc12 (centres unmarked) | 1.94 |
| CC(C)(NS(=O)(=O)c1ccc(Oc2ccc(F)cc2)cc1)C(=O)NO | 1.33 |
| COc1ccc(CC2NCCc3c2[nH]c2ccc(C)cc32)c(Cl)c1OC (centres unmarked) | 1.75 |
| CC1(C)SCN(S(=O)(=O)c2ccccc2)C1C(=O)NC(CNC(=O)NCc1ccccc1)C(=O)O (centres unmarked) | 0.0713 |
| Cc1nc(N)c2nnn(C[C@H]3CN(Cc4nccs4)CCO3)c2n1 | 0.523 |
| CO/N=C(\C(=O)N[C@@H]1C(=O)N2C(C(=O)OC(C)OC(C)=O)=C(COC(N)=O)CS[C@H]12)c1ccco1 (some centres unmarked) | 1.76 |
| CC(=O)c1cc2c(o1)C(=O)c1ccccc1C2=O | -4.99 |

Study 2 — observed: enzyme activity; mode: inhibitor; concentration: 0.5 µM; reference: control
Target: Serine/threonine-protein kinase Nek9 (NEK9, Homo sapiens, UniProt Q8TD19)
UniProt Q8TD19, sequence (whole entry, looked up): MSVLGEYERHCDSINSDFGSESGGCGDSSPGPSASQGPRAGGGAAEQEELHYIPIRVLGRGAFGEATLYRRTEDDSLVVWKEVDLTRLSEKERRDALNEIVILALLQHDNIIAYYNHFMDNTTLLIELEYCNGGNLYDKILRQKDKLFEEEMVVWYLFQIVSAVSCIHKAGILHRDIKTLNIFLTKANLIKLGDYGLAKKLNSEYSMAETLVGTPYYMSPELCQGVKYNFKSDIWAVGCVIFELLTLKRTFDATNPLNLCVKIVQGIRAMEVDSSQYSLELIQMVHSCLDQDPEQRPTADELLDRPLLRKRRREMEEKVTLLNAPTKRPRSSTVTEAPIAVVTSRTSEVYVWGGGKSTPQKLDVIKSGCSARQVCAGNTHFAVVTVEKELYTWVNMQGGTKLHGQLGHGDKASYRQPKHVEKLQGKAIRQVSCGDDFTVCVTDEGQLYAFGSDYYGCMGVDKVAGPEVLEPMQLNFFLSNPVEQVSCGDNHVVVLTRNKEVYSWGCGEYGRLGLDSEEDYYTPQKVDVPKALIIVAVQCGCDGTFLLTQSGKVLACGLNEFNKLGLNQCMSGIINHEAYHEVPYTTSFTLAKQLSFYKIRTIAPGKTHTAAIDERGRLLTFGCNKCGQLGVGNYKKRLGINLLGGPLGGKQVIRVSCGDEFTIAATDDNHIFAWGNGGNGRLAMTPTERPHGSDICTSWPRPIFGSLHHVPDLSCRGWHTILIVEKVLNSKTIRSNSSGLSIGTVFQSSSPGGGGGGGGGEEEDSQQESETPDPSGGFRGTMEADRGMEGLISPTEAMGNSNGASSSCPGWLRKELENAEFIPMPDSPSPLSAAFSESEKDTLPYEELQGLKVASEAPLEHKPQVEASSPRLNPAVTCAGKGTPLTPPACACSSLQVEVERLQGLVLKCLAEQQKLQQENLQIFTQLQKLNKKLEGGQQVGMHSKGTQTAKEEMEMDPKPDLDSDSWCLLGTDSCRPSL
| SMILES | remaining activity [%] |
| --- | --- |
| C[C@@H]1CCN(C(=O)CC#N)C[C@@H]1N(C)c1ncnc2[nH]ccc12 | 96.2 |
| Cc1cc2ncc(-c3ccccc3)nc2cc1C | 93.1 |
| Nc1cccc(-c2cc3c(Oc4cccc(O)c4)ncnc3[nH]2)c1 | 103 |
| O=C1C(Cl)=C(N2C(=O)CCC2=O)C(=O)c2ccccc21 | 98.3 |
| c1ccc(-c2cnc(Nc3ccc(OCCN4CCCC4)cc3)s2)cc1 | 101 |
| O=C1c2ccccc2-c2n[nH]c3cccc1c23 | 97 |
| COc1cc2c(cc1OC)-c1[nH]nc(Nc3cccc(F)c3)c1C2 | 102 |
| Ic1cccc(CSc2nnc(-c3ccncc3)o2)c1 | 99.2 |
| N#C/C(=C\c1ccc(O)c(O)c1)C(=O)NCc1ccccc1 | 97.2 |
| CN(C)C[C@H]1CCn2c(c(C3=C(c4cn(C)c5ccccc45)C(=O)NC3=O)c3ccccc32)C1 | 97.6 |
| O=c1cc(-c2cccc3c2Sc2ccccc2S3)oc(N2CCOCC2)c1 | 110 |
| Cc1nc2cc3nc(-c4cccs4)cnc3cc2n1C | 105 |
| CCN(CC)CCNC(=O)c1c(C)[nH]c(/C=C2\C(=O)Nc3ccc(Cl)cc32)c1C | 95.9 |
| CCN(CC)C(=O)c1ccc(Nc2nc(OCC3CCCCC3)c3[nH]cnc3n2)cc1 | 81.9 |
| Cc1cn(-c2cc(NC(=O)c3ccc(C)c(Nc4nccc(-c5cccnc5)n4)c3)cc(C(F)(F)F)c2)cn1 | 98.5 |
| CCN(CC)CCNC(=O)c1c(C)[nH]c(/C=C2\C(=O)Nc3ccc(F)cc32)c1C | 100 |
| CCOc1nc(NC(=O)Cc2cc(OC)ccc2OC)cc(N)c1C#N | 95.9 |
| O=C(Nc1cccc(Nc2nccc(Nc3cccc(C(F)(F)F)c3)n2)c1)C1CC1 | 102 |
| COc1cc2ncnc(Nc3ccc(O)c(Br)c3)c2cc1OC | 104 |
| Cn1nc2c3c(cccc31)C(=O)c1ccccc1-2 | 96.6 |
| CN([C@@H](Cc1ccc(OS(=O)(=O)c2cccc3cnccc23)cc1)C(=O)N1CCN(c2ccccc2)CC1)S(=O)(=O)c1cccc2cnccc12 | 97.6 |
| COc1cc2ncnc(Nc3cccc(Cl)c3)c2cc1OC | 82.6 |
| O=C(NC(NC(=S)Nc1ccc(F)c([N+](=O)[O-])c1)C(Cl)(Cl)Cl)C(c1ccccc1)c1ccccc1 (centres unmarked) | 110 |
| N#Cc1c(NC(=O)c2cccc3ccccc23)sc2c1CCCC2 | 96 |

Study 3 — SMILES: CCOc1ccc(Nc2c3c(nc4ccccc24)CCC3)cc1
| cell line | technique | concentration | time | setting | cytotoxicity |
| --- | --- | --- | --- | --- | --- |
| HepG2 | resazurin | 0.32 µM | 48 h |  | 4% and 3% |
| J774.1 | resazurin | 16.66 µM | 64 h |  | 69% and 65% |
| RAW264.7 | resazurin | 16.66 µM | 64 h |  | 53% and 25% |
| RAW264.7 | resazurin | 33.32 µM | 64 h |  | 81% and 84% |
| PMA-differentiated THP-1 macrophages |  | 2 µM | 64 h |  | 9% and 3% |
| J774.1 | resazurin | 0.0332 µM |  |  | 0% and -2% |
| HEK293 | resazurin | 0.0332 µM |  | 10% serum | -1% and -2% |
| RAW264.7 | resazurin | 6.66 µM | 64 h |  | 7% and 13% |

Study 4 — observed: cell-free assay; technique: competition with immobilised ligand; concentration: 0.1 µM
SMILES: O=C(NCCCC1CCCCC1)c1ccc(CNC(=O)c2cnn(-c3ccccc3)c2C(F)(F)F)cc1
| target | remaining binding |
| --- | --- |
| FLT3 (Homo sapiens, UniProt P36888) | 87% |
| ULK3 (Homo sapiens, UniProt Q6PHR2) | 100% |
| MAST1 (Homo sapiens, UniProt Q9Y2H9) | 88% |
| KIT (Homo sapiens, UniProt P10721, A829P) | 100% |
| Ribosomal protein S6 kinase alpha-1, C-terminal kinase domain (RPS6KA1, Homo sapiens, UniProt Q15418) | 100% |
| EGFR (Homo sapiens, UniProt P00533, T790M) | 97% |
| TESK1 (Homo sapiens, UniProt Q15569) | 100% |
| BMPR1B (Homo sapiens, UniProt O00238) | 92% |
| CSNK1A1L (Homo sapiens, UniProt Q8N752) | 94% |
| PAK3 (Homo sapiens, UniProt O75914) | 100% |
| RIOK3 (Homo sapiens, UniProt O14730) | 100% |
| Tyrosine-protein kinase ABL1, phosphorylated (ABL1, Homo sapiens, UniProt P00519) | 88% |
| STK39 (Homo sapiens, UniProt Q9UEW8) | 100% |
| Ribosomal protein S6 kinase alpha-3, C-terminal kinase domain (RPS6KA3, Homo sapiens, UniProt P51812) | 100% |
| GSK3A (Homo sapiens, UniProt P49840) | 100% |
| TLK2 (Homo sapiens, UniProt Q86UE8) | 100% |
| MAP3K6 (Homo sapiens, UniProt O95382) | 100% |
| NEK9 (Homo sapiens, UniProt Q8TD19) | 100% |
| PLK4 (Homo sapiens, UniProt O00444) | 96% |

Some of these lines once more (study 1):
| Structure (SMILES) | nuclei count [z-score] |
| --- | --- |
| COc1ccc(CC2NCCc3c2[nH]c2ccc(C)cc32)c(Cl)c1OC (centres unmarked) | 1.75 |
| CC1(C)SCN(S(=O)(=O)c2ccccc2)C1C(=O)NC(CNC(=O)NCc1ccccc1)C(=O)O (centres unmarked) | 0.0713 |
| Cc1nc(N)c2nnn(C[C@H]3CN(Cc4nccs4)CCO3)c2n1 | 0.523 |
| CO/N=C(\C(=O)N[C@@H]1C(=O)N2C(C(=O)OC(C)OC(C)=O)=C(COC(N)=O)CS[C@H]12)c1ccco1 (some centres unmarked) | 1.76 |
